Published values collected from several papers.
Protocols differ between the studies behind these lines. “And” joins repeats or separate records; there may be more than shown. ± gives the spread as reported.

The Tmax of `CSc1ccccc1C(=O)NCCn1cc(C(=O)NCc2cccc(C)n2)c(=O)c2cc3c(cc21)OC(F)(F)O3` is reported as 4 ± 2 h (Sprague-Dawley rat, male, whole blood; intramuscular, 3 mg/kg of parent drug).
`CCCCCCCOc1ccc(CCC(N)(CO)CO)cc1C(F)(F)F.Cl` gave a Tmax of 8 h (male Sprague-Dawley rat, heart; oral, 1 mg/kg, single dose).
The Tmax of `CN(C)C(=O)c1cc2cnc(Nc3ccc(N4CCNCC4)cn3)nc2n1C1CCCC1` is reported as about 6 h (intracerebral microdialysis; Sprague-Dawley rat, male, brain extracellular fluid, striatal dialysate; intraperitoneal, 100 mg/kg).
`O=C1c2ccccc2C(=O)N1CCCN1CCN(C(c2ccc(F)cc2)c2ccc(F)cc2)CC1` has a Tmax of 1.01 h (Sprague-Dawley rat, male, whole blood; oral, 10 mg/kg).
The Tmax of `N=C(N)NCCNC(=O)C1(Nc2ccccc2)CCN(Cc2ccccc2)CC1` is reported as 0.2 h (male Sprague-Dawley rats, plasma; oral, 50 mg/kg).
For `C=CC(=O)N1CCC(Oc2cc3c(Nc4ccc(Cl)c(Cl)c4F)ncnc3cc2OC)CC1`, the Tmax was 0.36 ± 0.34 h (Sprague-Dawley rat, male, plasma; oral, 2 mg/kg, 1 weeks pretreatment, with: Schisandrin B 20 mg/kg daily pretreatment).
The Tmax of `CCCCCCCCc1ccc(CCC(N)(CO)CO)cc1` is reported as 8 h (LC-MS/MS; Sprague Dawley rat, male, plasma; oral, 1 mg/kg amiselimod, single).
With `CC(C)c1nc(N(C)S(C)(=O)=O)nc(-c2ccc(F)cc2)c1/C=C/[C@@H](O)C[C@@H](O)CC(=O)O` the Tmax was 5.5 h and 3 h and 1 h (Wistar albino rat, both sexes, plasma; oral, 20 mg/kg).
For `C=CC(=O)N1CCC([C@@H]2CCNc3c(C(N)=O)c(-c4ccc(Oc5ccccc5)cc4)nn32)CC1`, the Tmax was 1.15 ± 1.06 h (Sprague-Dawley rats, plasma; oral, 16 mg/kg, with: posaconazole 40 mg/kg).
For `Cc1cccc(CNC(=O)c2cn(CCNC(=O)c3ccccc3Sc3c([N+](=O)[O-])ncn3C)c3cc4c(cc3c2=O)OC(F)(F)O4)n1`, the Tmax was 0.19 ± 0.06 h (Sprague-Dawley rat, male, plasma; intramuscular, 30 mg/kg of parent drug).
With `O=C(O)CCSC[C@H]1O[C@@H]2O[C@H]3[C@H](O)[C@@H](O)[C@@H](O[C@H]4[C@H](O)[C@@H](O)[C@@H](O[C@H]5[C@H](O)[C@@H](O)[C@@H](O[C@H]6[C@H](O)[C@@H](O)[C@@H](O[C@H]7[C@H](O)[C@@H](O)[C@@H](O[C@H]8[C@H](O)[C@@H](O)[C@@H](O[C@H]9[C@H](O)[C@@H](O)[C@@H](O[C@H]1[C@H](O)[C@H]2O)O[C@@H]9CSCCC(=O)O)O[C@@H]8CSCCC(=O)O)O[C@@H]7CSCCC(=O)O)O[C@@H]6CSCCC(=O)O)O[C@@H]5CSCCC(=O)O)O[C@@H]4CSCCC(=O)O)O[C@@H]3CSCCC(=O)O` the Tmax was 0.0167 h (Sprague Dawley rat, plasma; intravenous, 5 mg/kg, with: rocuronium bromide IV).
The Tmax of `Cc1cccc(CNC(=O)c2cn(CCNC(=O)c3ccccc3S)c3cc4c(cc3c2=O)OC(F)(F)O4)n1` is reported as 0.083 h (Sprague-Dawley rat, male, plasma; intravenous, 5 mg/kg of parent drug).
`CNC(=O)c1cccc(-c2ccc([C@@H](O)[C@H]3O[C@H](CO)[C@@H](O)[C@H](O)[C@@H]3O)c(C)c2)c1` gave a Tmax of 0.083 h (male Sprague-Dawley rat, plasma; intravenous, 3 mg/kg, group mean).
`OCC1=C[C@@H](O)[C@@H]2C=CO[C@@H](O[C@@H]3O[C@H](CO)[C@@H](O)[C@H](O)[C@H]3O)[C@H]12` gave a Tmax of 2.17 ± 1.26 h (rat, plasma; oral, 500 mg/kg Eu + 217 mg/kg Pc extract, dosed as combined Eu and Pc extracts).
`Cc1nc(-c2cnc(NC(C)C)n(C)c2=O)ccc1Oc1ccnc(-c2cnn(C)c2)c1` gave a Tmax of 0.08 h (Sprague-Dawley rat, male, plasma; intravenous, 1 mg/kg, crossover study).
`CN1CCC[C@H](CN2c3ccccc3Sc3ccccc32)C1.Cl` has a Tmax of 8 h (Wistar rat female, skin; oral, 16 mg/kg).
With `COC(=O)C1=CO[C@@H](O[C@@H]2O[C@H](CO)[C@@H](O)[C@H](O)[C@H]2O)[C@@H]2C(CO)=CC[C@H]12` the Tmax was 0.5 h (Sprague-Dawley rat, internal jugular vein plasma; oral, 500 mg/kg Eu extract, dosed as Eu extract).
`Cc1cc(-c2ccc3cc[nH]c(=O)c3c2)ccc1O[C@H]1O[C@H](CO)[C@@H](O)[C@H](O)[C@@H]1O` has a Tmax of 0.5 h (Sprague-Dawley rat, male, plasma; oral, 10 mg/kg).
The Tmax of `O=C1c2ccncc2C(=O)c2c1[nH]c1ccccc21` is reported as 0.08 h (Sprague-Dawley rat, female, plasma; intravenous, 5 mg/kg).
With `O=C(O)C1=CO[C@@H](O[C@@H]2O[C@H](CO)[C@@H](O)[C@H](O)[C@H]2O)[C@@H]2C(CO)=CC[C@H]12` the Tmax was 3 ± 1.73 h (rat, plasma; oral, 500 mg/kg Eu extract, dosed as Eu extract).
The Tmax of `CNC(=O)c1cccc(-c2ccc(O[C@H]3O[C@H](CO)[C@@H](O)[C@H](O)[C@@H]3O)c(C)c2)c1` is reported as 1.42 h (male Sprague-Dawley rat, plasma; oral, 10 mg/kg, group mean).
`CCc1c(-c2ccccc2)c(-c2ccccc2)nn1-c1ccccc1-c1cccc(OCC(=O)O)c1` gave a Tmax of 0.5 h and 2 h (Sprague-Dawley rat; oral).
With `C=CC(=O)N1CCC[C@@H](n2nc(-c3ccc(Oc4ccccc4)cc3)c3c(N)ncnc32)C1` the Tmax was 1 h (male Wistar rat, kidney; oral, 50 mg/kg).
For `CCc1cc(C(=O)NC)c2nccc(N3CCc4c(cc(Cn5ccnc5)cc4-c4cn(C)nc4C(F)(F)F)C3=O)c2c1`, the Tmax was 6.5 h (Sprague Dawley rat, male, plasma; oral, 100 mg/kg twice daily, 7 days).
With `O=C(Nc1ccc(OC(F)(F)Cl)cc1)c1cnc(N2CC[C@@H](O)C2)c(-c2ccn[nH]2)c1` the Tmax was 2.63 ± 1.11 h (Sprague-Dawley rat, male, plasma; oral, 8 mg/kg).
The Tmax of `O=c1oc2c(O)c(O)cc3c(=O)oc4c(O)c(O)cc1c4c23` is reported as 2.5 ± 0.5 h (rat, plasma; oral, 500 mg/kg extract, extract).
`C1=C/COCc2cc(ccc2OCCN2CCCC2)Nc2nccc(n2)-c2cccc(c2)COC/1` gave a Tmax of 7.33 ± 2.07 h (LC-MS/MS; Sprague-Dawley rat, male, plasma; oral, 36 mg/kg, with: isavuconazole 20 mg/kg oral).
